Experimental data collected from several papers.
Lines come from different studies, so protocols differ.

CC(=O)N[C@@H](CC(C)C)C(=O)N[C@H](C(=O)N[C@@H](Cc1ccccc1)C(=O)N[C@]1(C)CCCCCCC=CCCC[C@@](C)(C(=O)N[C@@H](CO)C(=O)N[C@@H](C)C(=O)N[C@@H](C)C(N)=O)NC(=O)[C@H](CC2CCC2)NC(=O)[C@H](CCC(N)=O)NC(=O)[C@H](C)NC(=O)[C@H](Cc2c[nH]c3ccccc23)NC(=O)[C@H](Cc2ccc(O)cc2)NC(=O)[C@H](CCC(=O)O)NC1=O)[C@@H](C)O  helicity (circular dichroism; solution; 25 °C): 49.6%
CC[C@H](C)[C@H](NC(=O)[C@H](CCCNC(=N)N)NC(=O)[C@H](CC(N)=O)NC(=O)[C@H](CCC(=O)O)NC(=O)[C@@H]1CCCN1C(=O)[C@H](CC(=O)O)NC(=O)[C@H](CC(N)=O)NC(=O)[C@H](CC(=O)O)NC(=O)[C@H](CC(=O)O)NC(=O)[C@@H](N)CO)C(=O)N[C@@H](C)C(=O)N[C@@H](CCCCN)C(=O)N[C@@H](CCCCN)C(=O)N[C@@]1(C)CCCC=CCCCCCC[C@](C)(C(=O)N[C@@H](CC(N)=O)C(=O)N[C@@H](CC(C)C)C(=O)N[C@@H](CO)C(=O)O)NC(=O)[C@H](CCCCN)NC(=O)[C@H]([C@@H](C)CC)NC(=O)[C@H](CCC(=O)O)NC(=O)[C@H](CCC(=O)O)NC(=O)[C@H](CC(C)C)NC(=O)[C@H](CC(C)C)NC1=O  helicity (circular dichroism; sodium phosphate, NaF; pH 7.5, 25 °C, isolated peptide): 23.4%
CC[C@H](C)[C@@H]1NC(=O)[C@H](CCCCN)NC(=O)[C@H](CCCCN)NC(=O)[C@H](Cc2ccc(O)cc2)NC(=O)[C@H](CC(C)C)NC(=O)[C@@H]2CCCN2C(=O)[C@H](C)NC(=O)CNC(=O)CNC(=O)[C@H](CO)NC(=O)CNC(=O)CNC(=O)[C@H](CO)NC(=O)[C@H](CCC(=O)O)NC(=O)[C@H](CC(C)C)NC(=O)[C@H](CC(C)C)NC(=O)[C@H](CCCNC(=N)N)NC(=O)[C@H](CCCCN)NC(=O)[C@H]([C@@H](C)CC)NC(=O)[C@H]([C@@H](C)CC)NC(=O)[C@H](CCCCN)NC(=O)[C@H](CCCCN)NC(=O)[C@H](Cc2ccc(O)cc2)NC(=O)[C@H](CC(C)C)NC(=O)[C@@H]2CCCN2C(=O)[C@H](C)NC(=O)CNC(=O)CNC(=O)[C@H](CO)NC(=O)CNC(=O)CNC(=O)[C@H](CO)NC(=O)[C@H](CCC(=O)O)NC(=O)[C@H](CC(C)C)NC(=O)[C@H](CC(C)C)NC(=O)[C@H](CCCNC(=N)N)NC(=O)[C@H](CCCCN)NC(=O)[C@H]([C@@H](C)CC)NC1=O  helicity (circular dichroism; aqueous NaF phosphate buffer; 50 µM, pH 7.5): 21%
CC[C@H](C)[C@H](NC(=O)[C@H](Cc1ccccc1)NC(=O)[C@H](CCN)NC(=O)[C@H](CCCNC(=N)N)NC(=O)[C@H](Cc1ccccc1)NC(=O)[C@H](Cc1ccccc1)NC(=O)[C@H](CCCCN)NC(=O)[C@H](CO)NC(=O)[C@H](CC(C)C)NC(=O)[C@H](CCCNC(=N)N)NC(=O)[C@H](CCSC)NC(=O)[C@H](C)N)C(=O)N[C@@H](CC(C)C)C(=O)N[C@@H](CCN)C(=O)N[C@@H](CCCNC(=N)N)C(=O)N[C@@H](CCCCN)C(=O)N[C@@H](CCCCN)C(=O)O  helicity (circular dichroism; 20% TFE in PBS; 200 µM, pH 7.4, 25 °C): 15.1%
CC[C@H](C)[C@@H]1NC(=O)[C@H](CCCCN)NC(=O)[C@H](CCCCN)NC(=O)[C@H](Cc2ccc(O)cc2)NC(=O)[C@H](CC(C)C)NC(=O)[C@@H]2CCCN2C(=O)[C@H](C)NC(=O)CNC(=O)CNC(=O)[C@H](CO)NC(=O)CNC(=O)CNC(=O)[C@H](CO)NC(=O)[C@H](CCC(=O)O)NC(=O)[C@H](CC(C)C)NC(=O)[C@H](CC(C)C)NC(=O)[C@H](CCCCN)NC(=O)[C@H](CCCCN)NC(=O)[C@H]([C@@H](C)CC)NC(=O)[C@H]([C@@H](C)CC)NC(=O)[C@H](CCCCN)NC(=O)[C@H](CCCCN)NC(=O)[C@H](Cc2ccc(O)cc2)NC(=O)[C@H](CC(C)C)NC(=O)[C@@H]2CCCN2C(=O)[C@H](C)NC(=O)CNC(=O)[C@@H]2CSSC[C@H](NC(=O)[C@H](CC(C)C)NC(=O)[C@H](CCCCN)NC(=O)[C@H](CCCCN)NC(=O)[C@H]([C@@H](C)CC)NC1=O)C(=O)N[C@@H](CCC(=O)O)C(=O)N[C@@H](CO)C(=O)NCC(=O)N2  helicity (circular dichroism; aqueous NaF phosphate buffer; 50 µM, pH 7.5): 21%
CC[C@H](C)[C@H](NC(=O)[C@H](Cc1ccccc1)NC(=O)[C@H](CC(=O)O)NC(=O)[C@H](CCCCN)NC(=O)[C@H](Cc1ccccc1)NC(=O)[C@H](Cc1ccccc1)NC(=O)[C@H](CCCCN)NC(=O)[C@H](CCCN)NC(=O)[C@H](CC(C)C)NC(=O)[C@H](CCCNC(=N)N)NC(=O)[C@H](CCSC)NC(=O)[C@H](C)N)C(=O)N[C@@H](CC(C)C)C(=O)N[C@@H](CCC(N)=O)C(=O)N[C@@H](CCCNC(=N)N)C(=O)N[C@@H](CCCCN)C(=O)N[C@@H](CCCCN)C(=O)O  helicity (circular dichroism; 20% TFE in PBS; 200 µM, pH 7.4, 25 °C): 24.9%
CC(=O)N[C@@H](CCCCN)C(=O)N[C@@H](CCCCN)C(=O)N[C@@H](CCCNC(=N)N)C(=O)N[C@@H](Cc1ccc(O)cc1)C(=O)N[C@@H](CO)C(=O)N[C@@H](CCCNC(=N)N)C(=O)N[C@@]1(C)CCCC=CCCC[C@@](C)(C(=O)N[C@@H](Cc2ccccc2)C(N)=O)NC(=O)[C@H](CC(C)C)NC(=O)[C@H](CC(C)C)NC(=O)[C@H](Cc2ccccc2)NC1=O  helicity (circular dichroism; solution): 24%
CC[C@H](C)[C@@H]1NC(=O)[C@H](CCCCN)NC(=O)[C@H](CCCCN)NC(=O)[C@H](Cc2ccc(O)cc2)NC(=O)[C@H](CC(C)C)NC(=O)[C@@H]2CCCN2C(=O)[C@H](C)NC(=O)CNC(=O)CNC(=O)[C@H](CO)NC(=O)CNC(=O)CNC(=O)[C@H](CO)NC(=O)[C@H](CCC(=O)O)NC(=O)[C@H](CC(C)C)NC(=O)[C@H](CC(C)C)NC(=O)[C@H](CCCCN)NC(=O)[C@H](CCCCN)NC(=O)[C@H]([C@@H](C)CC)NC(=O)[C@H]([C@@H](C)CC)NC(=O)[C@H](CCCCN)NC(=O)[C@H](CCCCN)NC(=O)[C@H](Cc2ccc(O)cc2)NC(=O)[C@H](CC(C)C)NC(=O)[C@@H]2CCCN2C(=O)[C@H](C)NC(=O)CNC(=O)[C@@H]2CSSC[C@H](NC(=O)[C@H](CC(C)C)NC(=O)[C@H](CCCCN)NC(=O)[C@H](CCCCN)NC(=O)[C@H]([C@@H](C)CC)NC1=O)C(=O)N[C@@H](CCC(N)=O)C(=O)N[C@@H](CC(N)=O)C(=O)NCC(=O)N2  helicity (circular dichroism; aqueous NaF phosphate buffer; 50 µM, pH 7.5): 23%
CC(=O)N[C@@H](CCCCN)C(=O)N[C@@H](CCCCN)C(=O)N[C@@H](CCCNC(=N)N)C(=O)N[C@@H](Cc1ccc(O)cc1)C(=O)N[C@@H](CO)C(=O)N[C@@H](CCCNC(=N)N)C(=O)N[C@@H](CCC(=O)O)C(=O)N[C@]1(C)CCCC=CCCC[C@@](C)(C(=O)N[C@@H](Cc2ccccc2)C(N)=O)NC(=O)[C@H](CC(C)C)NC(=O)[C@H](CC(C)C)NC1=O  helicity (circular dichroism; solution): 45%
CC[C@H](C)[C@H](NC(=O)[C@H](Cc1ccccc1)NC(=O)[C@H](CC(=O)O)NC(=O)[C@H](CCCN)NC(=O)[C@H](Cc1ccccc1)NC(=O)[C@H](Cc1ccccc1)NC(=O)[C@H](CCCCN)NC(=O)[C@H](CCCCN)NC(=O)[C@H](CC(C)C)NC(=O)[C@H](CCCNC(=N)N)NC(=O)[C@H](CCSC)NC(=O)[C@H](C)N)C(=O)N[C@@H](CC(C)C)C(=O)N[C@@H](CCC(N)=O)C(=O)N[C@@H](CCCNC(=N)N)C(=O)N[C@@H](CCCCN)C(=O)N[C@@H](CCCCN)C(=O)O  helicity (circular dichroism; 20% TFE in PBS; 200 µM, pH 7.4, 25 °C): 21.1%
CC[C@H](C)[C@H](NC(=O)CNC(=O)[C@H](Cc1c[nH]cn1)NC(=O)[C@@H](NC(=O)[C@@H](NC(=O)[C@H](CO)NC(=O)CNC(=O)[C@@H](NC(=O)[C@H](Cc1ccccc1)NC(=O)[C@H](CCCNC(=N)N)NC(=O)[C@H](CC(C)C)NC(=O)[C@@H](N)Cc1ccccc1)[C@@H](C)CC)C(C)C)[C@@H](C)CC)C(=O)NCC(=O)N[C@@H](Cc1c[nH]cn1)C(=O)N[C@@H](CC(C)C)C(=O)N[C@H](C(=O)N[C@@H](Cc1c[nH]cn1)C(=O)N[C@@H](Cc1c[nH]cn1)C(=O)N[C@H](C(=O)NCC(=O)N[C@H](C(=O)N[C@@H](C)C(=O)N[C@@H](CC(C)C)C(N)=O)C(C)C)[C@@H](C)CC)C(C)C  helicity (CD spectroscopy; 50% TFE; 50 µM): 39.8%
CC[C@H](C)[C@@H]1NC(=O)[C@H](Cc2ccccc2)NC(=O)[C@@H](NC(=O)[C@H](CCCNC(=N)N)NC(=O)[C@H](Cc2ccccc2)NC(=O)[C@H](Cc2ccccc2)NC(=O)[C@H](CCCCN)NC(=O)[C@H](CO)NC(=O)[C@H](CC(C)C)NC(=O)[C@H](CCCNC(=N)N)NC(=O)[C@H](CCSC)NC(=O)[C@H](C)N)CCNC(=O)NCCC[C@@H](C(=O)N[C@@H](CCCNC(=N)N)C(=O)N[C@@H](CCCCN)C(=O)N[C@@H](CCCCN)C(=O)O)NC(=O)[C@H](CC(C)C)NC1=O  helicity (circular dichroism; 20% TFE in PBS; 200 µM, pH 7.4, 25 °C): 4%
CC[C@H](C)[C@@H]1NC(=O)[C@H](CCCCN)NC(=O)[C@H](CCCCN)NC(=O)[C@H](Cc2ccc(O)cc2)NC(=O)[C@H](CC(C)C)NC(=O)[C@@H]2CCCN2C(=O)[C@H](C)NC(=O)CNC(=O)CNC(=O)[C@H](CO)NC(=O)CNC(=O)CNC(=O)[C@H](CO)NC(=O)[C@H](CCCCN)NC(=O)[C@H](CC(C)C)NC(=O)[C@H](CC(C)C)NC(=O)[C@H](CCCCN)NC(=O)[C@H](CCCCN)NC(=O)[C@H]([C@@H](C)CC)NC(=O)[C@H]([C@@H](C)CC)NC(=O)[C@H](CCCCN)NC(=O)[C@H](CCCCN)NC(=O)[C@H](Cc2ccc(O)cc2)NC(=O)[C@H](CC(C)C)NC(=O)[C@@H]2CCCN2C(=O)[C@H](C)NC(=O)CNC(=O)CNC(=O)[C@H](CO)NC(=O)CNC(=O)CNC(=O)[C@H](CO)NC(=O)[C@H](CCC(=O)O)NC(=O)[C@H](CC(C)C)NC(=O)[C@H](CC(C)C)NC(=O)[C@H](CCCCN)NC(=O)[C@H](CCCCN)NC(=O)[C@H]([C@@H](C)CC)NC1=O  helicity (circular dichroism; aqueous NaF phosphate buffer; 50 µM, pH 7.5): 24%
CC[C@H](C)[C@H](NC(=O)[C@H](CCCNC(=N)N)NC(=O)[C@@H](NC(=O)CNC(C)=O)[C@@H](C)O)C(=O)N[C@H](C(=O)N[C@@H](Cc1ccc(O)cc1)C(=O)N[C@@H](CC(=O)O)C(=O)N[C@@H](CCCNC(=N)N)C(=O)N[C@@]1(C)CCCC=CCCC[C@@](C)(C(=O)N[C@@H](CS)C(=O)N[C@@H](CCCNC(=N)N)C(=O)N[C@@H](CC(N)=O)C(N)=O)NC(=O)[C@H](CCSC)NC(=O)[C@H](CC(C)C)NC(=O)[C@H](Cc2ccccc2)NC1=O)[C@@H](C)CC  helicity (circular dichroism; aqueous 2,2,2-trifluoroethanol; 100 µM, pH 7.4, 25 °C): 83%
